# Measured values of several laboratories.
# A part holds a random share of what one study measured. Changes are numbered by the printed parent chain.

# Series 1 — technique: aptamer microarray, sandwich; form: DNA with 2'F-ANA; sample: in vitro; concentration: 200 nM; with: Cy3 exosite-II aptamer, 400 nM; direction: higher = stronger binding; oligonucleotide: GGTTGGTGTGGTTGG
# Target: Prothrombin, mature alpha-thrombin (F2, Homo sapiens, UniProt P00734)
# Setting: whole 15-mer aptamer, many near background
Modification,mean fluorescence intensity [a.u.]
2'F-ANA at 2 3 5 8 11 13 14 15,53.6
2'F-ANA at 3 4 5 6 8 13,64.6
2'F-ANA at 2 3 6 7 9 11 12 13 15,725
2'F-ANA at 1 2 5 6 9 12 13,75.8
2'F-ANA at 2 3 4 5 6 7 8 9 11 14,48.1
2'F-ANA at 1 2 5 8 11 13 14 15,51.2
2'F-ANA at 1 2 6 8 10 11 13,47.8
2'F-ANA at 3 4 6 7 12 14 15,292
2'F-ANA at 2 3 4 7 8 9 10 11 13 14 15,161
2'F-ANA at 1 2 5 7 10 13 15,46.3
2'F-ANA at 1 4 7 11 12 15,230
2'F-ANA at 1 4 6 8 9 10 11 13 14,46
2'F-ANA at 1 2 4 6 8 12 13 15,200
2'F-ANA at 1 2 3 4 7 8 9 10 11 12,81.7
2'F-ANA at 5 6 9 11 12 15,110
2'F-ANA at 2 3 4 10 11 12 13 14 15,166
2'F-ANA at 2 4 10 12 15,137
2'F-ANA at 1 2 3 5 7 8 9 10 11 12 13 15,54.1
2'F-ANA at 1 2 3 5 7 9 10 11 12 15,51.5
2'F-ANA at 3 5 6 8 9 10 11 12 13,57.7
2'F-ANA at 4 5 9 10 12 13 14,45.9
2'F-ANA at 1 2 5 7 9 10 11 14 15,53.9
2'F-ANA at 1 3 4 6 8 9 10 11 13 14,51.5
2'F-ANA at 1 3 4 5 6 7 12 13 15,78.7
2'F-ANA at 1 2 4 6 7 9 11 15,84.6

# Series 2 — technique: protein binding microarray; form: double-stranded DNA, one strand shown; sample: in vitro; concentration: not given; baseline: not given; direction: higher = stronger binding
# Target: Histone acetyltransferase KAT6A, winged helix 2, GST fusion (KAT6A, Homo sapiens, UniProt Q92794, residues 85-181)
# Setting: 8-mer, flanks averaged, mean of 2 arrays, mostly near background
# Construct (chain): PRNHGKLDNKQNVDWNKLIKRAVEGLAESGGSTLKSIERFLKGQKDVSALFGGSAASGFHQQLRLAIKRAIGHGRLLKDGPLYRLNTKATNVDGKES
Oligonucleotide,E-score
ACTAAGCC,-0.0927
ATTTTCTC,0.0656
CGTTAGTC,-0.114
GACCACTA,-0.154
CCGCCTAC,0.155
ACTATCTC,-0.147
GGCGTATA,0.0499
ACCCGGTC,0.0302
TCAATCAA,0.0154
GTGGAAAA,-0.0165
GCTAAATA,0.0745
CGGCCTGA,0.0554
TGTTTTAA,0.21
TAATAGGA,-0.0664
CCCCTGGA,0.00844
TTAAAGAA,0.0354
CGCTTTTA,0.0645
GCTCGGTA,0.000405
CTTGTAGA,-0.19
CGTTACCC,-0.0913
ATACAAGC,0.0392
GCATTCGC,0.0337
ATTAGGAC,-0.246
GGAGACCA,-0.0252
AGCACTCG,0.0818

# Series 3 — technique: RNA Bind-n-Seq; form: RNA; sample: in vitro; concentration: 365 nM; baseline: no-protein control; direction: higher = stronger binding
# Target: RNA binding protein fox-1 homolog 2, RRM domain, GST-SBP tag (RBFOX2, Homo sapiens, UniProt O43251-10, residues 100-194)
# Setting: natural RNA segment, single round, ends assumed
# Shared flanks, not repeated: GGGAGUUCUACAGUCCGACGAUC … UGGAAUUCUCGGGUGCCAA
# Target sequence (chain): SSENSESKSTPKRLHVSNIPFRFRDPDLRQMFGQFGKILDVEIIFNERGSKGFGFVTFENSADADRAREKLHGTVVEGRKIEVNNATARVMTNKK
Oligonucleotide,RBNS enrichment (R)
CUUUGGAAUGCAUGCCAGUAAUGUAUUUUACAGUACAUGUUUAUUAUGUUCAAUAUUUGUAUUUGUGUUCUCUUUUGUUAUUUUUAAUUAGGGUAUAUGAAUAUUUUGCA,3.84
UCAUCUAGCUUUUCAUUCUUUAAGUAAGGGGGAAAAAAUCACUAAACAAUAAAGUUGGCUAGACCUUGUUUGGGGAAUUUUACAAAUUUUAUAAACUAUCUGUAGCAAUU,0.519
AACCUGCUUGAAAAAGGCAACGUGUUCUUCACAGUGCUCUCCUGUAAGGACAACGCGGCUCAGUCAGCAGCUGGUUAUGGCCCGGGAAGACAGGAUGCAGACAACGCUCA,0.231
CAUUGUGAGAUCGAUCUGUCCUGGCAGUUAACACAAUGUGCAACAGUGUGUUAGCAUGGAACAGAACGCCUCUCACAAAACAAAGGACCGUUUUACAAAGGAUGAUCCGA,0.193
CCUCCCUCUCAUCCCAAAGCAGGUAUCUUCUGGUUGUCACAGAGUUUCAUUGAGUCCAGCUGCAGCCACGUGGCCAUCUGGAGCUGGUGCUAUAGGUGACCAUCUGGUAC,0.402
UGAGCAAGUCAGAAGUUACUCUCAUCAGUCGUUCAUGGUCACAACCUGAGGUACUCUGCUGAGUGGGCAAGGCUGAAGAAGAGGCCUGUGGAAUGCAGCAUUACCUGCUG,0.349
CACCUCUUCAACUUCUUCUGUGGCUUCUGUGUUACAUUGUUGCCCUGGUUCUCAUAUAUGCUGUGUAGACAAUGUUCUACAGUUAUGGCAAUAAAGAUAGAUUACAUCGC,0.295
UACCAGCAGAGUAAAUGUGGCCAUUGACUGGCCUAAGCAUUCUCUAAGAGUUGUGCUAGAUGGCUUCCAUGAUCUUGUCAAACCUAGAAAUUCCAAAAUCUCGAGGAAGC,0.246
GCUUCUCUCUGCCUCAGUGUCCGGGUCUGUAAGGUGGGCAGUUGAUGAUUUGUGGCAUCUCAACCAAGGGCCCCUGUGUGUGUGUGUUUGUGUGUGUGUACACAUAUCUG,1.58
AGAACUCACAGCCACGGAAGAGUUGUUGCAUUCAGAUUCUUGAGAAACAUUUGUUGCUCGGCAACAGUACUGGUUGGGUUGACCAGUUAAGUACCAAAAGGCUAUGCUGU,0.589
GCCCCACUAGCCAAGAGAAACAGAGAAAGACCAUUCCCCCUGCCUGUCCUUGCGGCCCUGUCUUCUGAGGUUCUCUGUCUGGGGUUGGCUCUCUUAACCCUUUCUCUGCU,0.96
UGUUUAUAUUAAAACAGACUAUUAUAAAGCUUUAAGUUGUCAACUUUGUUCUGAAUAUCAACUAGAGCAAGCAAAUACUGGAGAUUUCUUAGUCAGUUUUUAGGGGACCU,0.389

# Series 4 — technique: DHFR PCA, deep sequencing; sample: yeast; with: (+)-ABA 200 µM; baseline: wild-type fitted maximum; direction: higher = stronger binding
# Target: ABI1, truncated, D143A, DHFR fusion (Arabidopsis thaliana)
# Setting: methotrexate growth selection, single substitutions
# Starting sequence: PYL1, truncated, DHFR fusion (Arabidopsis thaliana); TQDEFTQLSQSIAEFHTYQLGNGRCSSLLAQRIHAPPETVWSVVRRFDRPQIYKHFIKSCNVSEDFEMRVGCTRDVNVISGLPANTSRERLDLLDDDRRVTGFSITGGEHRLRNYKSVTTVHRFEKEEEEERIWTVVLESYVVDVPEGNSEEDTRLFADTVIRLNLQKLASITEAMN
Variant,relative binding score
T120S,107%
L8E,66.4%
F103N,-11.1%
T1A,92.9%
T101E,15.7%
I52G,93.2%
Y141S,4.8%
Y141R,-6.1%
R24L,94.6%
R74T,11.2%
N77L,100%
H122S,65.2%

# Series 5 — technique: RNA Bind-n-Seq; form: RNA; sample: in vitro; concentration: 1 µM; setting: whole 134-nt RNA, ends assumed; with: 150 mM KCl; baseline: input library; direction: higher = stronger binding
# Target: Ras GTPase-activating protein-binding protein 1, C-terminal RGG region (G3BP1, Homo sapiens, UniProt Q13283)
# UniProt Q13283, sequence (whole entry, looked up): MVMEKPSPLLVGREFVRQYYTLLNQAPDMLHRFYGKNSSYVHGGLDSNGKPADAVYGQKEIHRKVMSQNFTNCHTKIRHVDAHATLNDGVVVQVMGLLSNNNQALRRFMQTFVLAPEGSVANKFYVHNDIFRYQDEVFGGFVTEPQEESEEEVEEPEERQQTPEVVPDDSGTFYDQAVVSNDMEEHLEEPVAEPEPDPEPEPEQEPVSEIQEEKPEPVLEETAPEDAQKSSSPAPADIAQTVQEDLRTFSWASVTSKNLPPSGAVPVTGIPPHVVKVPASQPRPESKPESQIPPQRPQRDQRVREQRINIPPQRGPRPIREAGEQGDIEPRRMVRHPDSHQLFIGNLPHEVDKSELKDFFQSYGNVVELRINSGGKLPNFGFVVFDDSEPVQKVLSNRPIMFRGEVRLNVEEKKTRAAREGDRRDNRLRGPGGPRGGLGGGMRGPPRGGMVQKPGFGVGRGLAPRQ
# Shared flanks, not repeated: GGGAGUUCUACAGUCCGACGAUC … UGGAAUUCUCGGGUGUCAAGG
Oligonucleotide,log2 enrichment
UCAAGUCCUGUGCUACACAUCGUAUGUACCGAAUCGGGUUUGGGUUUGGGUUUGGAAAGUAUUAUGUUACGCCGUUCGGAUCUGCACUUC,-1.01
AGUCCUGUGCUACACAUCGUAUGUACCGAAUCAAACCCCCCCAAACCCAAACCCAAAAAAGUAUUAUGUUACGCCGUUCGGAUCUGCACU,-1.07
UCAAGUCCUGUGCUACACAUCGUAUGUACCGAAUCGGCCCGGCCCGGGCCCGGGAAAGUAUUAUGUUACGCCGUUCGGAUCUGCACUUCC,-1.23
AAGUCCUGUGCUACACAUCGUAUGUACCGAAUCGGGCCCGGGGCCCGGGCCCGGGGAAAGUAUUAUGUUACGCCGUUCGGAUCUGCACUU,-2.48
GUCCUGUGCUACACAUCGUAUGUACCGAAUCGGGGAAAAAGGAAAAAGGGAAAAAGGGGAAAGUAUUAUGUUACGCCGUUCGGAUCUGCA,-1.15
CUCAAGUCCUGUGCUACACAUCGUAUGUACCGAAUCGGAAGGGAAGGAAGGGGAAAGUAUUAUGUUACGCCGUUCGGAUCUGCACUUCCA,-0.924
UAACUUUAGAGGAGGAUCUGAUGGAUAUGUCAGUGGACGUGGAUUUGGGGAUGGCUAUAAUGGGUAUGGAGGAGGACCUGGAGGUGGCAA,-1.39

# Excerpt of the above (series 4):
Variant,relative binding score
R24L,94.6%
N77L,100%
I52G,93.2%
H122S,65.2%
Y141R,-6.1%
T1A,92.9%
Y141S,4.8%
T101E,15.7%
T120S,107%
F103N,-11.1%
L8E,66.4%
R74T,11.2%
